{"data": "Results gathered from unrelated publications", "note": "Numbered parts are unrelated; each lists some results of a single study.", "chain of UniProt Q9BRS2 (whole entry, looked up)": "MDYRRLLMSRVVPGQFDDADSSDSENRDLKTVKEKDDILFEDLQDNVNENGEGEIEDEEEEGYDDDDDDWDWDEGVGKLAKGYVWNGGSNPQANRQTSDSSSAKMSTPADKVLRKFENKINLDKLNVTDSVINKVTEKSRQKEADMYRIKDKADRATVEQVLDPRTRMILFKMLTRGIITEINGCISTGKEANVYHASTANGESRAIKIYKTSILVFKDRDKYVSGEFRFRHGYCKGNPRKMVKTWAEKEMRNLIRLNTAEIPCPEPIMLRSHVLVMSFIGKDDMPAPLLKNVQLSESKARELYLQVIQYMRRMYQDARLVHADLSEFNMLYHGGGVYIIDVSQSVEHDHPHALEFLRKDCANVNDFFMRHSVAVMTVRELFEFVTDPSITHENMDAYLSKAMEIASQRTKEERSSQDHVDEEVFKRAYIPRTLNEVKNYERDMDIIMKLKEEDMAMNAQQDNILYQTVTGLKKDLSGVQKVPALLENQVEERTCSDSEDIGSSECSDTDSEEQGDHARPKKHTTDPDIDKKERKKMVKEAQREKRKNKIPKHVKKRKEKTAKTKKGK", "chain of UniProt P31751 (whole entry, looked up)": "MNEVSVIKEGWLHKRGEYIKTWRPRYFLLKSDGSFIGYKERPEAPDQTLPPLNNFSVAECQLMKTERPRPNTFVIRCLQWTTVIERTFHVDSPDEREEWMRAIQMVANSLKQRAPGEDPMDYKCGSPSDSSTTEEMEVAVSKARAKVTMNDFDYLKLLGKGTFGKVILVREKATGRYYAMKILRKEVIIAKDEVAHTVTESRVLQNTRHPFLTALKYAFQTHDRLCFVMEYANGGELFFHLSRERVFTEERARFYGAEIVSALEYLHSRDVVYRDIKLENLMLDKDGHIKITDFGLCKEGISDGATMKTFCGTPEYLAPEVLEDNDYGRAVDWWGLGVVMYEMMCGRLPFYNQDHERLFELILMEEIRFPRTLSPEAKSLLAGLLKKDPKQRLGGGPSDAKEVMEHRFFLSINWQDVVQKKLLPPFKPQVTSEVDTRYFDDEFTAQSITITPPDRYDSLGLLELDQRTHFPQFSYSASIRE", "chain of UniProt O14936 (whole entry, looked up)": "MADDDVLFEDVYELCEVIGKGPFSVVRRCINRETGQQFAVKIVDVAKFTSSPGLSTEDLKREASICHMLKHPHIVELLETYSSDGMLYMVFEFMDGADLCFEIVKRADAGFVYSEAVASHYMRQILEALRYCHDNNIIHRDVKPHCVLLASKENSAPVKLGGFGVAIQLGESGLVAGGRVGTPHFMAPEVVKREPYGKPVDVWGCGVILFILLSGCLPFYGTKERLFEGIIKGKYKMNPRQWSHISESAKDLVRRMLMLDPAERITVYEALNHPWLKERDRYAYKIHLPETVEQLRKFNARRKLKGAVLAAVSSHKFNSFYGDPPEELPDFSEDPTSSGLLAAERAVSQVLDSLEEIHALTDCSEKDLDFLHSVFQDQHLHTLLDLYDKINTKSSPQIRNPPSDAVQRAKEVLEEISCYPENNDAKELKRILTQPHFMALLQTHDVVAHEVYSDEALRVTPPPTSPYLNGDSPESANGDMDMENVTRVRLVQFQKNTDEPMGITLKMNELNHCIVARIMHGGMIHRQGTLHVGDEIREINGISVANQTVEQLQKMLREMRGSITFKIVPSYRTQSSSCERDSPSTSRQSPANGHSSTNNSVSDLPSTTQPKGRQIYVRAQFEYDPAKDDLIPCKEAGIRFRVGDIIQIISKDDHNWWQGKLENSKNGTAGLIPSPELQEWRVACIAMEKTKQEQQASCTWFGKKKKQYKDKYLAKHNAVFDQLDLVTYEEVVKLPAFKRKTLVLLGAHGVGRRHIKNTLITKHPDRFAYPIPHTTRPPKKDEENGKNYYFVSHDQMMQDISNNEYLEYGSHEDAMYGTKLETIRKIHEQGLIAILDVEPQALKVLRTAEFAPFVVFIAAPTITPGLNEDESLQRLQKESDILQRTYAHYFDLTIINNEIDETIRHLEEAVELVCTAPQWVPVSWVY", "chain of UniProt Q8TD19 (whole entry, looked up)": "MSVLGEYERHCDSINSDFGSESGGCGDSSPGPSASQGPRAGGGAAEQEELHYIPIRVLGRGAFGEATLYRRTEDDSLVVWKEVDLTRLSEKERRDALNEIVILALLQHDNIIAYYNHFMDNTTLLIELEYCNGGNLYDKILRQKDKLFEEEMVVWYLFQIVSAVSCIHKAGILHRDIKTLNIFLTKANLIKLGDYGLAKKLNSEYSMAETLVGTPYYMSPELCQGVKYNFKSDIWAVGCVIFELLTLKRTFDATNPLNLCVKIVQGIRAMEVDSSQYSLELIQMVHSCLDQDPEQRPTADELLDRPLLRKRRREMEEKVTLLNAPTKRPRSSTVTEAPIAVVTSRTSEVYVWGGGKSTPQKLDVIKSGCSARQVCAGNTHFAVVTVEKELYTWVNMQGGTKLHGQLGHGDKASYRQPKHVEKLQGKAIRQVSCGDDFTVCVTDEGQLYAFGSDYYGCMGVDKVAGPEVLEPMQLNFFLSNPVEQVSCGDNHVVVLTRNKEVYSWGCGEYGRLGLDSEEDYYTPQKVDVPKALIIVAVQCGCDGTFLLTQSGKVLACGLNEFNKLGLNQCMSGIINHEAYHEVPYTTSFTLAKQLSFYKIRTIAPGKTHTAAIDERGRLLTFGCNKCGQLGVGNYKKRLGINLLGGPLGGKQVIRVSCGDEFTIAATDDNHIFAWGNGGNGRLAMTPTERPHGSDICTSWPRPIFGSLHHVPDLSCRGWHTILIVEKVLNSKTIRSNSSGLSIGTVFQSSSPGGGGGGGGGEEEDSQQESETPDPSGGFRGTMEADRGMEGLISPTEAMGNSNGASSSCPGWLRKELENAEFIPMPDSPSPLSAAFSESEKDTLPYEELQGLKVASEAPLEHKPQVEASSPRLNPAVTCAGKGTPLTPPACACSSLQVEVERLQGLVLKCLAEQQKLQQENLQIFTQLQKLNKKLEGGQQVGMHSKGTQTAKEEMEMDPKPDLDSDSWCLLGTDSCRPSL"}
{"data": "Series 1", "SMILES": "CO[C@@H](C)c1c(Nc2ccc([C@H](N(C)C(=O)C3CCS(=O)(=O)CC3)C(F)(F)F)cc2)cnc2cc(Cl)nn12", "effect on": "cell-free assay", "technique": "competition with immobilised ligand", "concentration": "1 µM"}
{"target": "Phosphatidylinositol 4,5-bisphosphate 3-kinase catalytic subunit gamma isoform (PIK3CG, Homo sapiens, UniProt P48736)", "remaining binding [%]": 83}
{"target": "RAC-beta serine/threonine-protein kinase (AKT2, Homo sapiens, UniProt P31751)", "remaining binding [%]": 99}
{"target": "TGF-beta receptor type-1 (TGFBR1, Homo sapiens, UniProt P36897)", "remaining binding [%]": 94}
{"target": "Ribosomal protein S6 kinase alpha-2, N-terminal kinase domain (RPS6KA2, Homo sapiens, UniProt Q15349)", "remaining binding [%]": 100}
{"target": "Casein kinase I isoform epsilon (CSNK1E, Homo sapiens, UniProt P49674)", "remaining binding [%]": 66}
{"target": "Epidermal growth factor receptor (EGFR, Homo sapiens, UniProt P00533, L858R/T790M)", "remaining binding [%]": 80}
{"target": "Cyclin-dependent kinase 3 (CDK3, Homo sapiens, UniProt Q00526)", "remaining binding [%]": 90}
{"target": "Serine/threonine-protein kinase Nek9 (NEK9, Homo sapiens, UniProt Q8TD19)", "remaining binding [%]": 77}
{"target": "Serine/threonine-protein kinase TBK1 (TBK1, Homo sapiens, UniProt Q9UHD2)", "remaining binding [%]": 59}
{"target": "Serine/threonine-protein kinase MRCK alpha (CDC42BPA, Homo sapiens, UniProt Q5VT25)", "remaining binding [%]": 86}
{"target": "Hepatocyte growth factor receptor (MET, Homo sapiens, UniProt P08581, M1250T)", "remaining binding [%]": 92}
{"target": "Receptor-type tyrosine-protein kinase FLT3 (FLT3, Homo sapiens, UniProt P36888, ITD)", "remaining binding [%]": 71}
{"target": "Peripheral plasma membrane protein CASK (CASK, Homo sapiens, UniProt O14936)", "remaining binding [%]": 100}
{"target": "Serine/threonine-protein kinase RIO1 (RIOK1, Homo sapiens, UniProt Q9BRS2)", "remaining binding [%]": 85}
{"data": "Series 2", "target": "RAC-alpha serine/threonine-protein kinase (AKT1, Homo sapiens, UniProt P31749)", "effect on": "enzyme activity", "action": "inhibitor", "concentration": "0.5 µM", "reference": "control", "chain of UniProt P31749 (whole entry, looked up)": "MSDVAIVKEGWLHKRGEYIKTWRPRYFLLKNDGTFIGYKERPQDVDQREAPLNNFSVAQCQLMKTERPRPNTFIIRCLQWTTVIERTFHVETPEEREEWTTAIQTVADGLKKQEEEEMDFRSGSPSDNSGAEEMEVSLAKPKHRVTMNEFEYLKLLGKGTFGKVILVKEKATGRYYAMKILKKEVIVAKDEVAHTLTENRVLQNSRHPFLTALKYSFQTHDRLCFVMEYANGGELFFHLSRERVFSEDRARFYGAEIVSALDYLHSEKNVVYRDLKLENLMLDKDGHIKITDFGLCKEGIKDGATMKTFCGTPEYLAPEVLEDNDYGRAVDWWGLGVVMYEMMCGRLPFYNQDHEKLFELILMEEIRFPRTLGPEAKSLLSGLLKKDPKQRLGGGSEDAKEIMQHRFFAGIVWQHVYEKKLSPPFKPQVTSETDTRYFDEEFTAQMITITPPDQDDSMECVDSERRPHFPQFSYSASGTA"}
{"Structure (SMILES)": "CCCC(=O)Oc1ccc2[nH]c(C(=O)c3cc4ccccc4[nH]3)cc2c1", "remaining activity [%]": 102}
{"Structure (SMILES)": "CSc1nc(-c2ccnc(N[C@@H](C)c3ccccc3)c2)c(-c2ccc(F)cc2)[nH]1 (racemic)", "remaining activity [%]": 101}
{"Structure (SMILES)": "CC[n+]1c(/C=C/N(C)c2ccccc2)n(-c2ccccc2)c2ccc(-c3nc4ccccc4s3)cc21", "remaining activity [%]": 104}
{"Structure (SMILES)": "N#CC(=C(N)Sc1ccc(N)cc1)c1ccccc1C(F)(F)F", "remaining activity [%]": 101}
{"Structure (SMILES)": "Fc1ccc(-c2nc3n(c2-c2ccncc2)CCS3)cc1", "remaining activity [%]": 105}
{"Structure (SMILES)": "CC#CC(=O)Nc1cc2c(Nc3ccc(F)c(Cl)c3)ncnc2cn1", "remaining activity [%]": 98.1}
{"Structure (SMILES)": "CC(=O)c1ccc(N2CCOCC2)cc1O", "remaining activity [%]": 103}
{"Structure (SMILES)": "Oc1ccc(Nc2nc(-c3ccc(Cl)cc3)cs2)cc1", "remaining activity [%]": 106}
{"Structure (SMILES)": "O=C1Cc2c([nH]c3ccc([N+](=O)[O-])cc23)-c2ccccc2N1", "remaining activity [%]": 107}
{"Structure (SMILES)": "COc1ccc(S(=O)(=O)N(CCO)c2ccccc2CN(C)CC=Cc2ccc(Cl)cc2)cc1", "remaining activity [%]": 106}
{"Structure (SMILES)": "Cc1cc(Nc2nc(-c3ccccc3)nc3ccccc23)n[nH]1", "remaining activity [%]": 107}
{"Structure (SMILES)": "O=C1NC(=O)C(c2c[nH]c3ccccc23)=C1c1c[nH]c2ccccc12", "remaining activity [%]": 87.7}
{"Structure (SMILES)": "Cc1ccc(NC2=CC(=O)c3sc(C)nc3C2=O)cc1", "remaining activity [%]": 83.3}
{"Structure (SMILES)": "NC(=O)c1ccc(N(C(N)=O)c2c(F)cccc2F)nc1-c1ccc(F)cc1F", "remaining activity [%]": 84.7}
{"Structure (SMILES)": "Nc1nccc(-c2c(-c3ccc(F)cc3)ncn2C2CCNCC2)n1", "remaining activity [%]": 99.9}
{"Structure (SMILES)": "Cc1cncc2cccc(S(=O)(=O)N3CCCN(C(=O)CN)C[C@@H]3C)c12", "remaining activity [%]": 104}
{"Structure (SMILES)": "CC(C)(C)n1nc(Cc2cccc3ccccc23)c2c(N)ncnc21", "remaining activity [%]": 94.2}
{"Structure (SMILES)": "Nc1ncnc2c1cnn2-c1ccccc1", "remaining activity [%]": 103}
{"Structure (SMILES)": "COc1cc(Nc2c(C#N)cnc3cc(OCCCN4CCN(C)CC4)c(OC)cc23)c(Cl)cc1Cl", "remaining activity [%]": 94.4}
{"data": "Series 3", "Compound": "COc1cc(C(=O)N2CCC(N3CCN(C)CC3)CC2)ccc1Nc1ncc2c(n1)N(C)c1ccccc1C(=O)N2C", "technique": "KINOMEscan", "concentration": "10 µM", "reading": "lower = stronger binding"}
{"target": "IKK-alpha", "binding (% of control)": "100%"}
{"target": "SNARK", "binding (% of control)": "47%"}
{"target": "ABL1(F317L)-phosphorylated", "binding (% of control)": "0.85%"}
{"target": "p38-alpha", "binding (% of control)": "87%"}
{"target": "p38-beta", "binding (% of control)": "60%"}
{"target": "PFTAIRE2", "binding (% of control)": "100%"}
{"target": "TRKB", "binding (% of control)": "100%"}
{"target": "FAK", "binding (% of control)": "34%"}
{"target": "TRKA", "binding (% of control)": "69%"}
{"target": "ABL1(H396P)-phosphorylated", "binding (% of control)": "100%"}
{"target": "AMPK-alpha1", "binding (% of control)": "51%"}
{"target": "PRKR", "binding (% of control)": "84%"}
{"target": "ICK", "binding (% of control)": "90%"}
{"target": "CDK4-cyclinD1", "binding (% of control)": "100%"}
{"target": "IKK-epsilon", "binding (% of control)": "96%"}
{"data": "Series 4", "target": "Calcium/calmodulin-dependent protein kinase type II subunit alpha (CAMK2A, Homo sapiens, UniProt Q9UQM7)", "effect on": "enzyme activity", "action": "inhibitor", "concentration": "10 µM", "chain of UniProt Q9UQM7 (whole entry, looked up)": "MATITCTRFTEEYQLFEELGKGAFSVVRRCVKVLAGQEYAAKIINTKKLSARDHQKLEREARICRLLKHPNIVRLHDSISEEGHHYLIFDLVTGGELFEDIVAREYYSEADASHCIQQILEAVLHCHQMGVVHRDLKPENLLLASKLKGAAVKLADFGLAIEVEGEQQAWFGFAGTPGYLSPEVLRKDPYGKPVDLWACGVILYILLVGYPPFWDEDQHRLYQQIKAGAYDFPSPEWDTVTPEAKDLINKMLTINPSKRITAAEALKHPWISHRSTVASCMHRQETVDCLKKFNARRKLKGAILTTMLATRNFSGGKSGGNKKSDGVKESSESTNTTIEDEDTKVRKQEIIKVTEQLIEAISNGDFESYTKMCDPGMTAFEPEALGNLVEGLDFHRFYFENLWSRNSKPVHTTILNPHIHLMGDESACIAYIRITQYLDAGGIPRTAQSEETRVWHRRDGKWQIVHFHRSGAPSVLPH"}
{"SMILES": "CN1C(=O)OC(C)(C)C1=O", "inhibition [%]": -12}
{"SMILES": "CN1C(=O)CC(c2ccccc2)C1=O (stereo not drawn)", "inhibition [%]": 1}
{"SMILES": "O=C(O)C1=CO[C@@H](O[C@@H]2O[C@H](CO)[C@@H](O)[C@H](O)[C@H]2O)[C@@H]2C(CO)=CC[C@H]12", "inhibition [%]": -22}
{"SMILES": "COC(=O)C1=CO[C@@H](O)[C@@H]2[C@@H](C)[C@@H](O)C[C@H]12", "inhibition [%]": -25}
{"SMILES": "CC[C@@H]1[C@H]2CCCCN3[C@H]2[C@H](C[C@H]3[C@@H]2C[C@H](C)C(=O)O2)[C@@H]2[C@H]1OC(=O)[C@H]2C", "inhibition [%]": 0}
{"SMILES": "OCC(O)c1ccc(O)c(O)c1 (stereo not drawn)", "inhibition [%]": -43}
{"SMILES": "O=C(O)c1ccc(NC(=O)[C@H](Cc2ccc(O)cc2)NC(=O)c2ccccc2)cc1", "inhibition [%]": -3}
{"SMILES": "CN(C)c1nc2c(ncn2[C@@H]2O[C@H](CO)[C@@H](O)[C@H]2O)c(=O)[nH]1", "inhibition [%]": -25}
{"SMILES": "COc1cc(OC)c2ccc(=O)oc2c1", "inhibition [%]": -20}
{"SMILES": "COc1ccc(CCc2cc(OC)c(OC)c(OC)c2)cc1O", "inhibition [%]": 29}
{"SMILES": "COc1c(O)cc2c(c1O)C(=O)c1c(cc(C)c(O)c1OC)C2=O", "inhibition [%]": -73}
{"SMILES": "N=c1ccn2c(n1)O[C@H]1[C@H](O)[C@@H](CO)O[C@H]12", "inhibition [%]": 14}
{"SMILES": "CC(C)C1=Cc2ccc3c(c2C(=O)C1=O)CCCC3(C)C", "inhibition [%]": -37}
{"SMILES": "COc1cc(O)c2c(c1)O[C@H](c1ccccc1)CC2=O", "inhibition [%]": 1}
{"SMILES": "OC(c1ccccc1)(c1ccccc1)C12CC[N+](CCOCc3ccccc3)(CC1)CC2", "inhibition [%]": -8}
{"SMILES": "CCCC[C@@H]1OC(=O)C2=C1CCC=C2", "inhibition [%]": -14}
{"SMILES": "CCCCCCCCCCCC(=O)O[C@H](CC(=O)[O-])C[N+](C)(C)C", "inhibition [%]": -28}
{"SMILES": "C[C@H]1CC[C@]2(C(=O)O)CC[C@]3(C)C(=CC[C@@H]4[C@@]5(C)CC[C@H](O[C@@H]6OC[C@@H](O)[C@H](O)[C@H]6O[C@@H]6O[C@H](CO)[C@@H](O)[C@H](O)[C@H]6O)C(C)(C)[C@@H]5CC[C@]43C)[C@@H]2[C@]1(C)O", "inhibition [%]": -24}
{"note": "Excerpt of the above (series 4):"}
{"SMILES": "COC(=O)C1=CO[C@@H](O)[C@@H]2[C@@H](C)[C@@H](O)C[C@H]12", "inhibition [%]": -25}
{"SMILES": "CC[C@@H]1[C@H]2CCCCN3[C@H]2[C@H](C[C@H]3[C@@H]2C[C@H](C)C(=O)O2)[C@@H]2[C@H]1OC(=O)[C@H]2C", "inhibition [%]": 0}
{"SMILES": "OCC(O)c1ccc(O)c(O)c1 (stereo not drawn)", "inhibition [%]": -43}
{"SMILES": "O=C(O)c1ccc(NC(=O)[C@H](Cc2ccc(O)cc2)NC(=O)c2ccccc2)cc1", "inhibition [%]": -3}
{"SMILES": "CN(C)c1nc2c(ncn2[C@@H]2O[C@H](CO)[C@@H](O)[C@H]2O)c(=O)[nH]1", "inhibition [%]": -25}
{"SMILES": "COc1cc(OC)c2ccc(=O)oc2c1", "inhibition [%]": -20}
{"SMILES": "COc1ccc(CCc2cc(OC)c(OC)c(OC)c2)cc1O", "inhibition [%]": 29}
{"SMILES": "COc1c(O)cc2c(c1O)C(=O)c1c(cc(C)c(O)c1OC)C2=O", "inhibition [%]": -73}
{"SMILES": "N=c1ccn2c(n1)O[C@H]1[C@H](O)[C@@H](CO)O[C@H]12", "inhibition [%]": 14}
